Results gathered from unrelated publications.
Each numbered part is a random draw from the data of one study; scales do not carry over between parts.
UniProt Q06187, sequence (whole entry, looked up): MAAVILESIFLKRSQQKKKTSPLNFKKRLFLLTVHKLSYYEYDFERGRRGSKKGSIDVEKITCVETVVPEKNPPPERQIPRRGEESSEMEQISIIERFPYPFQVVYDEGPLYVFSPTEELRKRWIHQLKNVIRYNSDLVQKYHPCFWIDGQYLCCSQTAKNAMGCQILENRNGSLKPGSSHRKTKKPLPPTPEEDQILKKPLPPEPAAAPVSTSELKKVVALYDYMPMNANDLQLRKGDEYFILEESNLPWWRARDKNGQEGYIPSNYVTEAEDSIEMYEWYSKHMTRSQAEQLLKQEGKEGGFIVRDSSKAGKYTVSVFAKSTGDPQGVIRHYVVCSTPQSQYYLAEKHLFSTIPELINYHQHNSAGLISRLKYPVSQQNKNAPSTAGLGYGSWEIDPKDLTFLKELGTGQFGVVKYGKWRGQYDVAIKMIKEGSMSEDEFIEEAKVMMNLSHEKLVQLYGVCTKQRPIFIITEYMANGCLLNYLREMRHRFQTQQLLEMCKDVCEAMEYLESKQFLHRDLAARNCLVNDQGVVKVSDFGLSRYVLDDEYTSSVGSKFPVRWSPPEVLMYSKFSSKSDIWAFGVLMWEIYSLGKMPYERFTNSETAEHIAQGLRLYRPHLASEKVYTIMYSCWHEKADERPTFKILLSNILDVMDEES
UniProt Q5S007, sequence (whole entry, unmodified, looked up): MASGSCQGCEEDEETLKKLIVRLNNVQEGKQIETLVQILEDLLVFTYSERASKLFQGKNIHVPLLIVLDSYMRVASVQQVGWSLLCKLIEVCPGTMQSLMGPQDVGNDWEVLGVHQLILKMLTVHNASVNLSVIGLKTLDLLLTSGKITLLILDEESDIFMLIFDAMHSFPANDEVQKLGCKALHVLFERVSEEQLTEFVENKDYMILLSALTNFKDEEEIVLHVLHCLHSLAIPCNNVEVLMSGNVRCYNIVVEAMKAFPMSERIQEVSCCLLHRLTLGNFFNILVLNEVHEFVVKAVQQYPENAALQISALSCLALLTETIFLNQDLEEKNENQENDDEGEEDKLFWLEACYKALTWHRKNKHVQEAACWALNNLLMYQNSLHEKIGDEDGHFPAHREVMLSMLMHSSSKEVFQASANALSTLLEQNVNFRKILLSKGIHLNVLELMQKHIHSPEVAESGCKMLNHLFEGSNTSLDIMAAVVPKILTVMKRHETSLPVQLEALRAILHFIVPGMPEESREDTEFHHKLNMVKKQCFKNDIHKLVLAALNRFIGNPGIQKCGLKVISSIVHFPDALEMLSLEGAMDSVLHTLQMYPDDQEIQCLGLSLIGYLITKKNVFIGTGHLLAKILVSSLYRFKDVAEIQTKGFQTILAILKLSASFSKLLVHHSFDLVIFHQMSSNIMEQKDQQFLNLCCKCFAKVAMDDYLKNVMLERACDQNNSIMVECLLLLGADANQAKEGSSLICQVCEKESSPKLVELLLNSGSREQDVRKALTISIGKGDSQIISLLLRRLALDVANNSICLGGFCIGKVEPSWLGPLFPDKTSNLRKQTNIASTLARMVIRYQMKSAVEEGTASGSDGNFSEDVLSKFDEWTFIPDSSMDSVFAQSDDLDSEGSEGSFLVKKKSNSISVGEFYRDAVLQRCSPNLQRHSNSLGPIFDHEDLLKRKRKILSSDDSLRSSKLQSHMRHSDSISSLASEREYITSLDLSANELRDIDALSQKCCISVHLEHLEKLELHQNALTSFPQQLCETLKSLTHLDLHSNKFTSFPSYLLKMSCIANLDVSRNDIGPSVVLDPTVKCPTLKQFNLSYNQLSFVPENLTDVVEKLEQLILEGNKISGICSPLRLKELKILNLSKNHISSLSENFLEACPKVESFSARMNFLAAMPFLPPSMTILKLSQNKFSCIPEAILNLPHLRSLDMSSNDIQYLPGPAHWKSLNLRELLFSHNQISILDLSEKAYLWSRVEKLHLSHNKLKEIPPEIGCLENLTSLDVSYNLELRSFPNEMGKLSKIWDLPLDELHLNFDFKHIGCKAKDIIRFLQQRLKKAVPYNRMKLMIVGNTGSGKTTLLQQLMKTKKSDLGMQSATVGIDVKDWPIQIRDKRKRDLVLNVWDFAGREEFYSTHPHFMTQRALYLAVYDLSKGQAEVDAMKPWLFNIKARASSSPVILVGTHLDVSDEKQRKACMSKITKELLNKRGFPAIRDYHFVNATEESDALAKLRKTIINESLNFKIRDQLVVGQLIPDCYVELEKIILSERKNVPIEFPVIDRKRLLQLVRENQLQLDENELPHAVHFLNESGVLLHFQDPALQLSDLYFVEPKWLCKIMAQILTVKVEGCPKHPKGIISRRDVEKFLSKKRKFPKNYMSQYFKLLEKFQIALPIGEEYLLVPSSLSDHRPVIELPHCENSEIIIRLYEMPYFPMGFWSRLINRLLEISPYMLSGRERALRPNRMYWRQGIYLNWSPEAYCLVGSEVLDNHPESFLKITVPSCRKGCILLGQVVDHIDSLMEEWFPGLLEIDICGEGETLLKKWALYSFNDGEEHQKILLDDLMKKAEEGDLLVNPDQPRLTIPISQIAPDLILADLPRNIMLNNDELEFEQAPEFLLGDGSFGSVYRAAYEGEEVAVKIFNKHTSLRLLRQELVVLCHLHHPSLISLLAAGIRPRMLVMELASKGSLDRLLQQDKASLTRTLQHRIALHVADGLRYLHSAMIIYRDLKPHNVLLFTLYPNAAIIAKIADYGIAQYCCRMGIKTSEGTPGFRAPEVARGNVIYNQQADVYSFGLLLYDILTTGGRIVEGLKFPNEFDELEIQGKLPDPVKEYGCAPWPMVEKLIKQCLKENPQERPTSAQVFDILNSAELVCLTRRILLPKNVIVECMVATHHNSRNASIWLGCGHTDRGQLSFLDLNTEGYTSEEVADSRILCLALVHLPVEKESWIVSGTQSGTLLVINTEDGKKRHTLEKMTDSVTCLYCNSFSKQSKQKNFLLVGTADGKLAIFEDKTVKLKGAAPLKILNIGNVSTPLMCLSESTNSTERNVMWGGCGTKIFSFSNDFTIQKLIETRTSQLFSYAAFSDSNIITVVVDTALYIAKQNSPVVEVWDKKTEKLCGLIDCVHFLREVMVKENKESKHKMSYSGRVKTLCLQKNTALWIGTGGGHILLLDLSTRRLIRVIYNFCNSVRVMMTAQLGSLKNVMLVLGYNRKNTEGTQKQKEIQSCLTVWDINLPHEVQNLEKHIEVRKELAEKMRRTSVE
UniProt Q9Y2H1, sequence (whole entry, looked up): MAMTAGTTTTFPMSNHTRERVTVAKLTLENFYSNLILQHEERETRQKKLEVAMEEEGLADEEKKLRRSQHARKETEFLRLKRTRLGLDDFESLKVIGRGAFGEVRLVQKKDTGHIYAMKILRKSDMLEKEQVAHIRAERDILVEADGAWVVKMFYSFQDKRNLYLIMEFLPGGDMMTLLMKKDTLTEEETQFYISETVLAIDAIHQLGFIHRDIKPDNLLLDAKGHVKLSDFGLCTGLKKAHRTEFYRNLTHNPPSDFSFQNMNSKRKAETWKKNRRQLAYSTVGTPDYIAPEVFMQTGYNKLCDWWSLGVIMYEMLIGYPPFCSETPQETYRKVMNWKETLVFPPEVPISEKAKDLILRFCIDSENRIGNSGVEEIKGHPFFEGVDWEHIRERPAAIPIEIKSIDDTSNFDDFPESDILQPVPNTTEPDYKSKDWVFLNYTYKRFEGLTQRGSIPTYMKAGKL
UniProt O14730, sequence (whole entry, looked up): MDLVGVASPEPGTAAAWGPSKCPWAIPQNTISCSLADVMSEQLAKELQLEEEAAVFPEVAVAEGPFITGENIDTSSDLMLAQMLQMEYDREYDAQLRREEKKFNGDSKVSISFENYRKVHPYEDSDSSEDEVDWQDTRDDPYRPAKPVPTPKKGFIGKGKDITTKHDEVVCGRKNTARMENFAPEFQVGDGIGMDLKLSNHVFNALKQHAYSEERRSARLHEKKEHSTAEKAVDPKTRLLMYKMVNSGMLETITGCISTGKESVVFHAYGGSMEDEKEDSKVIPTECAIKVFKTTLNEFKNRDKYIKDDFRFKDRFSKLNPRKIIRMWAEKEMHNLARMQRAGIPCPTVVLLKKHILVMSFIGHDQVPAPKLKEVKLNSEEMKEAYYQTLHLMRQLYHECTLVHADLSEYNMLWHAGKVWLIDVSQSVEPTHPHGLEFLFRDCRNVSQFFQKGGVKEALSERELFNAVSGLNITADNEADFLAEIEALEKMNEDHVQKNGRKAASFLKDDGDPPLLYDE

Study 1 — read-out: cell-free assay; technique: competition with immobilised ligand; concentration: 0.1 µM
SMILES: Cc1c[nH]c2nccc(Oc3c(F)cc(Nc4cc(Cl)nc(N)n4)cc3F)c12
| target | remaining binding [%] |
| --- | --- |
| cAMP-dependent protein kinase catalytic subunit alpha (PRKACA, Homo sapiens, UniProt P17612) | 28 |
| Serine/threonine-protein kinase Chk1 (CHEK1, Homo sapiens, UniProt O14757) | 100 |
| Serine/threonine-protein kinase LATS2 (LATS2, Homo sapiens, UniProt Q9NRM7) | 0.7 |
| Serine/threonine-protein kinase PLK1 (PLK1, Homo sapiens, UniProt P53350) | 75 |
| Serine/threonine-protein kinase RIO3 (RIOK3, Homo sapiens, UniProt O14730) | 93 |
| Tyrosine-protein kinase Lck (LCK, Homo sapiens, UniProt P06239) | 100 |
| Cyclin-dependent kinase 17 (CDK17, Homo sapiens, UniProt Q00537) | 81 |
| Bone morphogenetic protein receptor type-2 (BMPR2, Homo sapiens, UniProt Q13873) | 95 |
| Interleukin-1 receptor-associated kinase 3 (IRAK3, Homo sapiens, UniProt Q9Y616) | 85 |
| Serine/threonine-protein kinase 38-like (STK38L, Homo sapiens, UniProt Q9Y2H1) | 87 |
| MAP/microtubule affinity-regulating kinase 4 (MARK4, Homo sapiens, UniProt Q96L34) | 100 |
| Tyrosine-protein kinase BTK (BTK, Homo sapiens, UniProt Q06187) | 96 |
| Vascular endothelial growth factor receptor 3 (FLT4, Homo sapiens, UniProt P35916) | 98 |
| Mast/stem cell growth factor receptor Kit (KIT, Homo sapiens, UniProt P10721, V559D/V654A) | 94 |
| Serine/threonine-protein kinase LATS1 (LATS1, Homo sapiens, UniProt O95835) | 42 |
| NUAK family SNF1-like kinase 2 (NUAK2, Homo sapiens, UniProt Q9H093) | 85 |
| Phosphatidylinositol 4,5-bisphosphate 3-kinase catalytic subunit alpha isoform (PIK3CA, Homo sapiens, UniProt P42336, Q546K) | 76 |
| Leucine-rich repeat serine/threonine-protein kinase 2 (LRRK2, Homo sapiens, UniProt Q5S007, G2019S) | 100 |
| Tyrosine-protein kinase HCK (HCK, Homo sapiens, UniProt P08631) | 100 |
| Megakaryocyte-associated tyrosine-protein kinase (MATK, Homo sapiens, UniProt P42679) | 88 |
| SNF-related serine/threonine-protein kinase (SNRK, Homo sapiens, UniProt Q9NRH2) | 77 |
| Serine/threonine-protein kinase 3 (STK3, Homo sapiens, UniProt Q13188) | 69 |
| Citron Rho-interacting kinase (CIT, Homo sapiens, UniProt O14578) | 100 |
| Fibroblast growth factor receptor 3 (FGFR3, Homo sapiens, UniProt P22607, G697C) | 100 |
| Serine/threonine-protein kinase Nek5 (NEK5, Homo sapiens, UniProt Q6P3R8) | 97 |

Study 2 — species: mouse; medium: microsomes or S9; concentration: 2 µM; time: 0.5 h
| Compound | remaining compound [%] |
| --- | --- |
| CC(C)Oc1ccc(C(=O)O)cc1NC(=O)c1cccn1C | 63.9 |
| CCn1c(=O)c2sccc2n2c(CCCC(=O)NCCc3ccc(S(N)(=O)=O)cc3)nnc12 | 94.9 |
| COc1cc2c(cc1OC)-c1cc(-c3ccccc3F)cn1CC2 | 4.92 |
| O=C(c1ccc(-c2ncc[nH]2)s1)N1CC[C@@H](c2ccc(F)cc2)[C@H](O)C1 | 30.8 |
| O=S(=O)(c1ccccc1)n1ccc2ncccc21 | 36.2 |
| CC1CCN(C(=O)c2cc3c([nH]2)CCOC3)c2c(O)cccc21 (stereo not drawn) | 19.5 |
| c1ccc(OCCN2CCCC3(C2)Nc2ccccc2-n2cccc23)cc1 (stereo not drawn) | 0.0402 |
| CCOc1cccc(CNC(=O)c2c(OCC(C)C)cc(=O)n3c2CCCCC3)c1 | 0.0898 |
| CC(C)(C)OC(=O)N[C@@H](CC(=O)N1CCN(S(C)(=O)=O)CCN1)Cc1cc(F)c(F)cc1F | 22.7 |
| CCOc1cc(=O)n2c(c1C(=O)N1CCN(c3cccc(Cl)c3)CC1)CCCC2 | 14.1 |
| CCOC(=O)c1c(=O)n(-c2ccc(C)cc2)nc2ccccc12 | 0.104 |
| Cc1ccn(S(=O)(=O)c2cc(C)c(C)cc2Br)n1 | 0.432 |
| CCOC(=O)c1ccc(Nc2nc3ccc(Cl)cc3n3cnnc23)cc1 | 67.7 |
| CCNC(=O)NCCc1ccc(OC)c(Nc2ncc(Cl)c(Nc3ccccc3S(=O)(=O)C(C)C)n2)c1 | 9.16 |

Study 3 — read-out: enzyme activity; mode: inhibitor; concentration: 0.5 µM; baseline: control
Target: Ephrin type-B receptor 3 (EPHB3, Homo sapiens, UniProt P54753)
Construct (P54753 1-998): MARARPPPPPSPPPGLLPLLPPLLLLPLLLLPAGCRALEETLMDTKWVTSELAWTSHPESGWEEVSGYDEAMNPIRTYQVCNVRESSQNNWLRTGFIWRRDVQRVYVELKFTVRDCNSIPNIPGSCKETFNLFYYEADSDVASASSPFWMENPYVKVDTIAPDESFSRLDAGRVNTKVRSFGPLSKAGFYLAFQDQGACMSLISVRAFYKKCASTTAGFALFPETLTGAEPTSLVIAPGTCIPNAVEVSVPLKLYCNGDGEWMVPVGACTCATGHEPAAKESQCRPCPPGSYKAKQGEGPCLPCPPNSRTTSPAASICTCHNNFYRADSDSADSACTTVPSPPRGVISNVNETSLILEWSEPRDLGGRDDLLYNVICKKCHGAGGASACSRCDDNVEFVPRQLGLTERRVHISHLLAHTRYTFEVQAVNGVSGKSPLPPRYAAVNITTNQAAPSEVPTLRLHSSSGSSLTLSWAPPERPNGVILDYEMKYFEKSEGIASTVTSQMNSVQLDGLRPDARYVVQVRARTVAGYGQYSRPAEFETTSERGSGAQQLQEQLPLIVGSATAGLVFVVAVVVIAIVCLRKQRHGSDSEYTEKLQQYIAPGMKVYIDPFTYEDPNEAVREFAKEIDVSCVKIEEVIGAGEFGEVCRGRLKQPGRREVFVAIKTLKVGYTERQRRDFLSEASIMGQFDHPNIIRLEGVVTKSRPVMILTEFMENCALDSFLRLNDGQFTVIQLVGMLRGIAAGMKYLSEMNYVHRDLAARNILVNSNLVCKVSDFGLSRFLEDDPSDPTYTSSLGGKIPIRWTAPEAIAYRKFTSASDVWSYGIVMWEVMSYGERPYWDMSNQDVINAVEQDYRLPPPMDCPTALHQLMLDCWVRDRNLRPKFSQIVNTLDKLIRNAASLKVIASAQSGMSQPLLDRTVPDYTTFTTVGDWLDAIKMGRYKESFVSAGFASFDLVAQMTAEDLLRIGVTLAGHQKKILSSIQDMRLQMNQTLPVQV
| SMILES | remaining activity [%] |
| --- | --- |
| Fc1ccc(-c2nc3n(c2-c2ccncc2)CCS3)cc1 | 96.1 |
| COc1cc(Nc2c(C#N)cnc3cc(OCCCN4CCN(C)CC4)c(OC)cc23)c(Cl)cc1Cl | 49.4 |
| Cc1cc(Nc2nc(-c3ccccc3)nc3ccccc23)n[nH]1 | 86.5 |
| O=S(=O)(NCCNC/C=C/c1ccc(Br)cc1)c1cccc2cnccc12 | 92.5 |
| CC#CC(=O)Nc1cc2c(Nc3ccc(F)c(Cl)c3)ncnc2cn1 | 85.4 |
| CC[n+]1c(/C=C/N(C)c2ccccc2)n(-c2ccccc2)c2ccc(-c3nc4ccccc4s3)cc21 | 102 |
| CC(C)(C)n1nc(Cc2cccc3ccccc23)c2c(N)ncnc21 | 45.2 |
| CSc1nc(-c2ccnc(N[C@@H](C)c3ccccc3)c2)c(-c2ccc(F)cc2)[nH]1 (racemic) | 94 |
| Nc1ncnc2c1cnn2-c1ccccc1 | 93.5 |
| CC(=O)c1ccc(N2CCOCC2)cc1O | 92.3 |
| Nc1nccc(-c2c(-c3ccc(F)cc3)ncn2C2CCNCC2)n1 | 101 |
| Nc1nc(Nc2ccc(S(N)(=O)=O)cc2)nn1C(=O)c1c(F)cccc1F | 98.5 |
| COc1ccc(S(=O)(=O)N(CCO)c2ccccc2CN(C)CC=Cc2ccc(Cl)cc2)cc1 | 92.8 |
| O=C1Cc2c([nH]c3ccc([N+](=O)[O-])cc23)-c2ccccc2N1 | 103 |
| Cc1cncc2cccc(S(=O)(=O)N3CCCN(C(=O)CN)C[C@@H]3C)c12 | 99.6 |
| CCc1[nH]c(-c2ccc(OC)cc2)nc1-c1ccncc1 | 107 |
| CCCC(=O)Oc1ccc2[nH]c(C(=O)c3cc4ccccc4[nH]3)cc2c1 | 94.2 |
| Cc1ccc(NC2=CC(=O)c3sc(C)nc3C2=O)cc1 | 89.2 |
| Oc1ccc(Nc2nc(-c3ccc(Cl)cc3)cs2)cc1 | 103 |
| O=C1NC(=O)C(c2c[nH]c3ccccc23)=C1c1c[nH]c2ccccc12 | 94.3 |
| N#CC(=C(N)Sc1ccc(N)cc1)c1ccccc1C(F)(F)F | 96.7 |
| NC(=O)c1ccc(N(C(N)=O)c2c(F)cccc2F)nc1-c1ccc(F)cc1F | 65.8 |

Study 4 — read-out: enzyme activity; mode: inhibitor; concentration: 10 µM
Target: Calcium/calmodulin-dependent protein kinase type II subunit alpha (CAMK2A, Homo sapiens, UniProt Q9UQM7)
UniProt Q9UQM7, sequence (whole entry, looked up): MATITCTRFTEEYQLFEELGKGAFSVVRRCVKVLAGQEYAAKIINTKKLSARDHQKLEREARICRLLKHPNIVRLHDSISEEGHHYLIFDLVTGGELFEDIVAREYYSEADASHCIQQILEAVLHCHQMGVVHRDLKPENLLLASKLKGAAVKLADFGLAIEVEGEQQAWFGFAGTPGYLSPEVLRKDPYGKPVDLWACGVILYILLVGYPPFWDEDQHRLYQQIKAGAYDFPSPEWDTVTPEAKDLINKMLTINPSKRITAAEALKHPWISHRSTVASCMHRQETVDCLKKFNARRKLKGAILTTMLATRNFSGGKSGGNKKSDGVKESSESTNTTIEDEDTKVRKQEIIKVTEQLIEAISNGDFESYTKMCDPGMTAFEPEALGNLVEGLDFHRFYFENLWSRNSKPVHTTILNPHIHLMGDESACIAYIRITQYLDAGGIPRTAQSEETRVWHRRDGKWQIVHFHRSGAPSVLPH
| SMILES | inhibition [%] |
| --- | --- |
| CC#C[C@]1(O)CC[C@H]2[C@@H]3CCC4=CC(=O)CCC4=C3[C@@H](c3ccc(N(C)C)cc3)C[C@@]21C | -8 |
| Nc1ncnc(N)c1NC=O | -1 |
| C[C@H]1CNCCCN1S(=O)(=O)c1cccc2cncc(F)c12 | 3 |
| C[C@@H](CO[C@@H]1O[C@H](CO)[C@@H](O)[C@H](O)[C@H]1O)[C@@H]1CC[C@@]2(CC[C@]3(C)[C@H](CC[C@@H]4[C@@]5(C)CC[C@H](O[C@@H]6O[C@H](CO)[C@@H](O)[C@H](O)[C@H]6O[C@@H]6O[C@H](CO)[C@@H](O)[C@H](O)[C@H]6O)[C@@](C)(CO[C@@H]6O[C@H](CO)[C@@H](O)[C@H](O)[C@H]6O)[C@@H]5CC[C@]43C)[C@H]2O)CO1 | -4 |
| C=C1CCN([C@H](C)[C@](O)(Cn2cncn2)c2ccc(F)cc2F)CC1 | -8 |
| CN1C[C@@H]2C[C@H]1CN2c1cc2c(cc1F)c(=O)c(C(=O)O)cn2C1CC1 | 0 |
| COc1cc2oc(-c3ccccc3)cc(=O)c2c(O)c1O | -9 |
| NC(CCSSCCC(N)C(=O)O)C(=O)O (stereo not drawn) | -10 |
| C=C(C(=O)O)[C@@H]1CC[C@H](C)[C@@H]2CC(=O)C(C)=C2C1 | 8 |
| Cn1c(=O)c2[nH]c(=O)[nH]c2n(C)c1=O | -25 |
| Cc1cc(C)c(O)c(C)c1 | -26 |
| NCCCC(=O)O | 19 |
| CCCCCCCC=O | -2 |
| CCC(O)CC(=O)O (stereo not drawn) | -14 |
| O=Cc1cc(O)ccc1O | -20 |
| Nc1ncn([C@H]2C[C@H](O)[C@@H](CO)O2)c(=O)n1 | 0 |
| CC1(C)[C@@H](O)CC[C@]2(C)[C@H]3CC=C4[C@@H]5C[C@@]6(C)C[C@H](OC6=O)[C@]5(C)CC[C@@]4(C)[C@]3(C)CC[C@@H]12 | -25 |
